{"data": "Published values pooled from the literature", "note": "Every numbered part comes from another study and shows a few of its results, in no order."}
{"data": "Series 1", "target": "Histone acetyltransferase KAT6A, winged helix 2, GST fusion (KAT6A, Homo sapiens, UniProt Q92794, residues 85-181)", "technique": "protein binding microarray", "form": "double-stranded DNA, one strand shown", "sample": "in vitro", "tested at": "not given", "setting": "8-mer, flanks averaged, mean of 2 arrays, mostly near background", "relative to": "not given", "reading": "higher = stronger binding", "Residues (chain)": "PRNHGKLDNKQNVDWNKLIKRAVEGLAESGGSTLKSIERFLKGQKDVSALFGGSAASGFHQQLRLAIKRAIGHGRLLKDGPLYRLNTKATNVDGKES"}
{"Sequence": "CACCGTTC", "E-score": -0.0309}
{"Sequence": "CACCAGCG", "E-score": 0.141}
{"Sequence": "TCCATTAA", "E-score": 0.00722}
{"Sequence": "CGGATCCA", "E-score": 0.0643}
{"Sequence": "CACTTGAG", "E-score": -0.0738}
{"Sequence": "ACACTGTC", "E-score": -0.0752}
{"Sequence": "GAAATAGA", "E-score": 0.174}
{"Sequence": "AACCACTG", "E-score": 0.0293}
{"Sequence": "TAAGTGCA", "E-score": -0.115}
{"Sequence": "AAGCAGAT", "E-score": 0.151}
{"Sequence": "GAATTTCC", "E-score": -0.0809}
{"Sequence": "CTCATAAG", "E-score": -0.0348}
{"Sequence": "CGTTACAC", "E-score": -0.000875}
{"Sequence": "ATGTAAAA", "E-score": -0.0614}
{"Sequence": "CCCAAAAC", "E-score": 0.114}
{"Sequence": "CCCTGGCC", "E-score": 0.0444}
{"Sequence": "CCCACCAC", "E-score": 0.059}
{"Sequence": "CACGTGCG", "E-score": -0.0509}
{"Sequence": "AGGTCAAA", "E-score": -0.0987}
{"Sequence": "AGCTAGCT", "E-score": 0.0286}
{"Sequence": "AGGCGGGG", "E-score": 0.232}
{"Sequence": "CATGCGGA", "E-score": 0.0799}
{"Sequence": "AACTCGCT", "E-score": 0.221}
{"Sequence": "CTCAGATA", "E-score": -0.0321}
{"Sequence": "GCCGCCGA", "E-score": 0.145}
{"data": "Series 2", "target": "PABPC1L2, full length, GST fusion (mouse, UniProt A0ABA7IW68)", "technique": "RNAcompete", "form": "RNA", "sample": "in vitro", "tested at": "20 nM", "setting": "7-mer, probes averaged, single round", "relative to": "mean of 7-mers", "reading": "higher = stronger binding", "Construct (chain)": "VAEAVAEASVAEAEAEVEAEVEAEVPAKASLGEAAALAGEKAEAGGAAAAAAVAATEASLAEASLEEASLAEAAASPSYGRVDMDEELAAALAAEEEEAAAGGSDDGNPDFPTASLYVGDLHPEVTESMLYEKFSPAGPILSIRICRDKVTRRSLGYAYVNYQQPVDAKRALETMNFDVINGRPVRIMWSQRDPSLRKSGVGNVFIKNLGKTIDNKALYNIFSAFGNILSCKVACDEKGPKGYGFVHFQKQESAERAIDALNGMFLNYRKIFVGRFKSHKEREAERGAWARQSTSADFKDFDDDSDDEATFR"}
{"Sequence": "GGACGCG", "7-mer Z-score": 0.162}
{"Sequence": "ACACAAU", "7-mer Z-score": 0.131}
{"Sequence": "GGAAGAG", "7-mer Z-score": 0.267}
{"Sequence": "GCAAAUU", "7-mer Z-score": 0.142}
{"Sequence": "UCUACUC", "7-mer Z-score": -0.351}
{"Sequence": "ACCUGGU", "7-mer Z-score": -0.325}
{"Sequence": "GGGACAG", "7-mer Z-score": 0.213}
{"Sequence": "GACGCUA", "7-mer Z-score": -0.164}
{"Sequence": "GCAGCCU", "7-mer Z-score": -0.262}
{"Sequence": "UUAUCUC", "7-mer Z-score": -0.344}
{"Sequence": "GCUAGUA", "7-mer Z-score": -0.0518}
{"Sequence": "UAUGGGA", "7-mer Z-score": 0.215}
{"Sequence": "CCGCCCU", "7-mer Z-score": -0.543}
{"Sequence": "GACUCUG", "7-mer Z-score": -0.22}
{"Sequence": "GAUUUGG", "7-mer Z-score": -0.2}
{"Sequence": "GGAAUAC", "7-mer Z-score": -0.0283}
{"Sequence": "AGUUUUU", "7-mer Z-score": -0.353}
{"Sequence": "CUUCGAA", "7-mer Z-score": -0.298}
{"Sequence": "CAUUGUA", "7-mer Z-score": -0.175}
{"Sequence": "UAGCAGC", "7-mer Z-score": -0.22}
{"Sequence": "AUUACGG", "7-mer Z-score": 0.124}
{"Sequence": "UUGGUAA", "7-mer Z-score": -0.103}
{"Sequence": "AGGUGAC", "7-mer Z-score": 0.117}
{"Sequence": "CCUUAUC", "7-mer Z-score": -0.387}
{"data": "Series 3", "target": "RNA binding protein fox-1 homolog 2, RRM domain, GST-SBP tag (RBFOX2, Homo sapiens, UniProt O43251-10, residues 100-194)", "technique": "RNA Bind-n-Seq", "form": "RNA", "sample": "in vitro", "tested at": "365 nM", "setting": "natural RNA segment, single round, ends assumed", "relative to": "no-protein control", "reading": "higher = stronger binding", "Target sequence (chain)": "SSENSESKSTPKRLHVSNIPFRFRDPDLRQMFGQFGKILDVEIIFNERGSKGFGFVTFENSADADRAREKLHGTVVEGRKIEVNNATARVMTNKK"}
{"Sequence": "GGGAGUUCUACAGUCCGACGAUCUUCAUGCCAUCUGUUUUCAACCAACUAUUUUUGAGGAAUUAUCAUGGGAAAAGACCAGGGCUUUUCCCAGGAAUAUCCCAAACUUCGGAAACAAGUUAUUCUCUUCACUCUGGAAUUCUCGGGUGCCAA", "RBNS enrichment (R)": 0.432}
{"Sequence": "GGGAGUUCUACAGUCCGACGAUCGGCUCACCUGCGCGGGCUGGGGGGCCUGGCCUCCUGACCUUCGCCGCCCUGCCCUCCGCCGCUCCGCCUGAGCUCCCCGGUUUGCAGAAUGGAGGAGGGAAGUUGAAGGAUGGAAUUCUCGGGUGCCAA", "RBNS enrichment (R)": 0.739}
{"Sequence": "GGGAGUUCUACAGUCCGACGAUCAAUUUGUAUUUUGCAGACAAUUCAGUAAAGUUACUGGCUUUCUUAGUGAUGCAGUGUCCGUGGUGCAUUUUUUAAAUUAAUGUUUUGCUGUUUAAAUUUAUUCAAUUUUAUGGAAUUCUCGGGUGCCAA", "RBNS enrichment (R)": 0.716}
{"Sequence": "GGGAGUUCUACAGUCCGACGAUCGACUGAGUUCUUUGAGUUGCAUAUAAAUGGGGGUAUAUUAUUUGCCAAAGGUAAAAUUGAGUUUAUUCUUUUUCAUACAGAAAUGGAUUUUGCUUUUGUUUGCUUUUUAUUGGAAUUCUCGGGUGCCAA", "RBNS enrichment (R)": 1.5}
{"Sequence": "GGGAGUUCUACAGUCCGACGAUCAUUUUAUAGCUUUAAUUUGUGUUAUUUCUUUAUUGACGGGAAGAGGUACAUCUUUUUUUCCUUACUGAAAACAAAUAUGGAUUAAUUGCCUCAAAUUUGUAUAAGUGAUUUGGAAUUCUCGGGUGCCAA", "RBNS enrichment (R)": 0.288}
{"Sequence": "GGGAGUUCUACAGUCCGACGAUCAUGUCCCUUGUGCAUUGAGUGCAUCCCCGCUGGUGACUAAGCUCGCAGCAAGCGGCUACCCCCCGAUCUGCAAAAGGGCCUCUCCCUUUGUGUUCUAUACAUUGUGAAUCUGGAAUUCUCGGGUGCCAA", "RBNS enrichment (R)": 0.601}
{"Sequence": "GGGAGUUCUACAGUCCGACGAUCAGAGGAAAAUUGGCACCUCAUCUUUUAAAGGCAGUAAUGGAAUUGAUUUUCAGUAACUGAAUUUGUGCACAAAACAUUCUAAACACUAGUGAAGCCUGUUUCGUUGAACUUGGAAUUCUCGGGUGCCAA", "RBNS enrichment (R)": 0.36}
{"Sequence": "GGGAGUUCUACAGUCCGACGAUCUAGAACACAGUAUACCUAUAGUAUACCUAUGUGUUUAUUAUGUUUGUAAAUGGUAACUGACAUUUAAUUAUUAGAAGUACUUACCCCUGCCUUCCUCCAUUUUUAUUCAUUGGAAUUCUCGGGUGCCAA", "RBNS enrichment (R)": 0.457}
{"data": "Further values, each from its own experiment"}
{"Substance": "PhoQ, residues 284 288 289 292 302 303 NLGVHL", "target": "PhoP, residues 12 14 15 18 19 AQALL (Escherichia coli, UniProt P23836)", "test": "Sort-seq, item: YFP reporter", "test system": "E. coli", "conditions": "PhoQ-PhoP variant library, with: 10 µM Mg2+", "how to read": "relative to: high Mg2+ state, higher = stronger signaling", "quantity": "fold induction", "result": 28.6}
{"note": "Excerpt of the above (series 3):"}
{"Sequence": "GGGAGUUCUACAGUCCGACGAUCAAUUUGUAUUUUGCAGACAAUUCAGUAAAGUUACUGGCUUUCUUAGUGAUGCAGUGUCCGUGGUGCAUUUUUUAAAUUAAUGUUUUGCUGUUUAAAUUUAUUCAAUUUUAUGGAAUUCUCGGGUGCCAA", "RBNS enrichment (R)": 0.716}
{"Sequence": "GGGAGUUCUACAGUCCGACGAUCGACUGAGUUCUUUGAGUUGCAUAUAAAUGGGGGUAUAUUAUUUGCCAAAGGUAAAAUUGAGUUUAUUCUUUUUCAUACAGAAAUGGAUUUUGCUUUUGUUUGCUUUUUAUUGGAAUUCUCGGGUGCCAA", "RBNS enrichment (R)": 1.5}
{"Sequence": "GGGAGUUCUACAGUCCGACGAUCAUUUUAUAGCUUUAAUUUGUGUUAUUUCUUUAUUGACGGGAAGAGGUACAUCUUUUUUUCCUUACUGAAAACAAAUAUGGAUUAAUUGCCUCAAAUUUGUAUAAGUGAUUUGGAAUUCUCGGGUGCCAA", "RBNS enrichment (R)": 0.288}
{"Sequence": "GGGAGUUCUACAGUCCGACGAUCAUGUCCCUUGUGCAUUGAGUGCAUCCCCGCUGGUGACUAAGCUCGCAGCAAGCGGCUACCCCCCGAUCUGCAAAAGGGCCUCUCCCUUUGUGUUCUAUACAUUGUGAAUCUGGAAUUCUCGGGUGCCAA", "RBNS enrichment (R)": 0.601}
{"Sequence": "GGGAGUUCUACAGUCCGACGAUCAGAGGAAAAUUGGCACCUCAUCUUUUAAAGGCAGUAAUGGAAUUGAUUUUCAGUAACUGAAUUUGUGCACAAAACAUUCUAAACACUAGUGAAGCCUGUUUCGUUGAACUUGGAAUUCUCGGGUGCCAA", "RBNS enrichment (R)": 0.36}
